Results collected from several papers.
Protocols differ between the studies behind these lines. ± gives the spread as reported.
Sequence of UniProt Q92995 (whole entry, looked up): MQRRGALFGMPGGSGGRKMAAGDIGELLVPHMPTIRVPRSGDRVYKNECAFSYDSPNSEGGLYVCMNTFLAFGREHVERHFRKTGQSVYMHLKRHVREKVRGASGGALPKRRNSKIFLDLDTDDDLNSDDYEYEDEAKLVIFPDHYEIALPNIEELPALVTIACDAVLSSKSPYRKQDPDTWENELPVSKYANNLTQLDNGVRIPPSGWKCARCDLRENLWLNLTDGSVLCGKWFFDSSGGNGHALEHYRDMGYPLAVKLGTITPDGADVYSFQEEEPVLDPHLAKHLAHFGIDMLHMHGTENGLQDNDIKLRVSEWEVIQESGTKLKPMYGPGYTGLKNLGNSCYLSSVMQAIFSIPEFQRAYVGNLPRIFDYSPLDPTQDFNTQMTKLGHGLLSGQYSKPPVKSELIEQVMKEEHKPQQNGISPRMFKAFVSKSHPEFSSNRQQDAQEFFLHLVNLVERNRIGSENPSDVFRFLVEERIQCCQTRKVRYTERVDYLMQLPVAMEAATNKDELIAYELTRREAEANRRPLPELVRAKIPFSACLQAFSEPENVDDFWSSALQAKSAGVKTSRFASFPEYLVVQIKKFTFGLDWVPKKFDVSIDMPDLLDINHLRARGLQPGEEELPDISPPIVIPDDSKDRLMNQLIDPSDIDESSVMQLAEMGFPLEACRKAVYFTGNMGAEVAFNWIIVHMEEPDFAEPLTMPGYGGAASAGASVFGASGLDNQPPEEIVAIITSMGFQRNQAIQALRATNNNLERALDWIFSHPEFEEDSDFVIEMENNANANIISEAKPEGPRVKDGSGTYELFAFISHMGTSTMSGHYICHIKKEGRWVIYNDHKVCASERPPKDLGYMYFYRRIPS
Sequence of UniProt Q9UBN7 (whole entry, looked up): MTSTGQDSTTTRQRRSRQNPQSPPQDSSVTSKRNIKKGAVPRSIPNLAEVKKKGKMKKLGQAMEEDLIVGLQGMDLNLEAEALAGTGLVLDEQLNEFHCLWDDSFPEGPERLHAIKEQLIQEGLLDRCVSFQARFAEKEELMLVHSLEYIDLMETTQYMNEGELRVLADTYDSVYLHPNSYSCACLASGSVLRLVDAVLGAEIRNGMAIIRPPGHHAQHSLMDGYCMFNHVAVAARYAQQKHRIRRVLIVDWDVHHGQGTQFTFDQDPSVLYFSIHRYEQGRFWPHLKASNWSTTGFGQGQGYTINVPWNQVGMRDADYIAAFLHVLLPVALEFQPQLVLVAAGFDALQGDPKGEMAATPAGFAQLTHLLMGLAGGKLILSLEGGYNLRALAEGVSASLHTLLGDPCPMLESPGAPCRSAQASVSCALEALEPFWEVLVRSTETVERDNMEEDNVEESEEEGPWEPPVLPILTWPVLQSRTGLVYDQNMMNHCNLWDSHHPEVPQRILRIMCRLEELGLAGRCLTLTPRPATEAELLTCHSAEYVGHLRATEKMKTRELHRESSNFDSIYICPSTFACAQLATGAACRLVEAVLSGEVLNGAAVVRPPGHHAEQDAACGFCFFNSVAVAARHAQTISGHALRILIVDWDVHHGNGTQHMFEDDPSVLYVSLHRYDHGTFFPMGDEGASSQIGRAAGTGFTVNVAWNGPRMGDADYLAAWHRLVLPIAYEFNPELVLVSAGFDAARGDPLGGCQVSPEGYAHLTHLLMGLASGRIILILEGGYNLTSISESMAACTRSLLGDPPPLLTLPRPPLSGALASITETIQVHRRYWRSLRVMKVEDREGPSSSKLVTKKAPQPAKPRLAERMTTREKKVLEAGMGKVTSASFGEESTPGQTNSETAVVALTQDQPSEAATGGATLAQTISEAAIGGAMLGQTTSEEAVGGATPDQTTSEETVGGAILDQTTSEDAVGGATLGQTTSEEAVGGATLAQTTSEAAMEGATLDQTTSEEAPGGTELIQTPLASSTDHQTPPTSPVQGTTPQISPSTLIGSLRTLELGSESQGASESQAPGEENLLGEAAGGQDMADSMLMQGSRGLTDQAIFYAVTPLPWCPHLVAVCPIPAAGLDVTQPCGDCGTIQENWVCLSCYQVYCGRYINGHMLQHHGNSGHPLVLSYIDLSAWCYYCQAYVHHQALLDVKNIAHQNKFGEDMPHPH

`N#Cc1ccc2c(c1)[C@H]1CCCN(C(=O)c3ccc4[nH]cnc4c3)[C@H]1C2`: “C-peptide AUC change” -0.09 pmol/h/L (meal tolerance test; human, Phase II trial; 240 mg once daily, day 28, AUC0-2 h, adjusted mean; relative to: baseline).
Under “median overall survival”, `NC(=O)/C(=C/n1cnc(-c2cc(C(F)(F)F)cc(C(F)(F)F)c2)n1)c1cncnc1` is recorded as 135 days (C57BL/6 mice, Eµ-TCL1 CLL transplant; 15 mg/kg, 2 times per week).
`Cn1cc(Nc2nccc(-c3ccc4c(c3)CN(C3COC3)CC[C@H]4NC(=O)c3cn(C(C)(C)C)nn3)n2)cn1`: “pathway activation z-score” -1.13 (measured: MIF-mediated glucocorticoid regulation; splenic B cells, mice; 30 mg/kg, IgD-activated in vivo; relative to: vehicle, direction not given).
For `OC(CCN1CCCCC1)(c1ccccc1)C1CC2C=CC1C2` (centres unmarked), “change in EEG Alpha2-power Fz-Cz” read 40.4% (resting-state EEG; healthy elderly humans; oral, 4 mg, eyes closed, LS mean; relative to: baseline).
The Kd of `O=C(O)CCn1cnc2ccccc21` is reported as greater than 1000 µM (Protein deacetylase HDAC6, ZnF-UBD domain (HDAC6, Homo sapiens, UniProt Q9UBN7)).
Under “log2 fold change”, `c1ccc(-c2n[nH]cc2-c2ccnc3ccccc23)nc1` is recorded as 1.16 (kinase binding, competitor, MIB/MS competition, measured: SCH9; Candida albicans cell lysate; 1 µM; relative to: DMSO).
`COc1cc2cc(-c3ccc(CC(=O)Nc4cc(C(C)(C)C(F)(F)F)no4)cn3)cnc2cc1OC` — result for “stable disease as best response”: 49% (human RET-altered advanced solid tumours; 75 mg, phase I pooled, RECIST 1.1).
`Cn1cc(-c2ccc(-c3cncc(Cl)c3N3CCC4(CCNC4=O)CC3)cc2)cn1` — result for “log2 fold change”: 2.76 (COLO 205; gene expression, microarray, measured: SDC4 mRNA; concentration not given, 2 h; relative to: untreated cells).
The inhibition of `CN[C@@H]1COc2c(S(=O)(=O)NC(=O)Nc3c4c(cc5c3CCC5)CCC4)cnn2C1` is reported as 2% (measured: IL-1β; human participants, whole blood ex vivo; 450 mg single dose, 72 h, together with: LPS/ATP; relative to: baseline).
The Kd of `O=C(O)Cc1nc2ccccc2o1` is reported as 278 µM (Ubiquitin carboxyl-terminal hydrolase 13, ZnF-UBD domain (USP13, Homo sapiens, UniProt Q92995)).
`Cc1nn(-c2nc3c(F)cc(F)cc3s2)c(O)c1C(c1ccc(C(F)(F)F)cc1)c1c(C)nn(-c2nc3c(F)cc(F)cc3s2)c1O` has a histology score of 0 (measured: pancreatic haemorrhage; mouse, cerulein-induced acute pancreatitis; 25 mg/kg; direction not given).
Under “change from baseline”, `NC(=O)c1cnc2[nH]ccc2c1N[C@@H]1[C@@H]2CC3C[C@H]1C[C@@](O)(C3)C2` is recorded as 1.02% (flow cytometry, measured: memory T cells (CD3+ CD45RA-); Japanese healthy subjects, peripheral blood; oral, 10 mg twice daily, day 4).
`Cn1cc([C@H]2C[C@H]3CSC(N)=N[C@@]3(c3ccc(F)cc3F)CO2)cn1` gave an Aβ40 level of 0.94 ng/mL (measured: Aβx-40; Mus musculus wild-type, cerebrospinal fluid; subcutaneous, 50 mg/kg, 13 h).
`CCN1CCN(Cc2ccc(Nc3ncc(F)c(-c4cc(F)c5nc6n(c5c4)[C@H](C)CCC6)n3)nc2)CC1` — result for “not evaluable tumour response”: 0% (Phase Ia, RECIST v1.1; patients with advanced solid tumours; dose not given, monotherapy, all doses).
`C[C@H]1C[C@H]2CSC(N)=N[C@@]2(c2nc(NC(=O)c3ccc(OC(F)F)cn3)cs2)CO1`: “percent change from baseline” -35.6% (measured: total Aβ; healthy adults, plasma; 5 mg once daily, day 7; relative to: placebo).
`CO[C@H]1CC[C@H](N2C(=O)CNc3ncc(-c4ccc(C(C)(C)O)nc4)nc32)CC1` — result for “p4EBP1 change from baseline”: -36.6% (flow cytometry; stimulated T cells, human, blood; 60 mg single dose, 5 h, median; relative to: baseline).
`C[C@H](Oc1ccc(Br)cc1-c1ccon1)C(=O)O` — result for “difference from placebo”: 1.38% (first response peak; human, tibialis anterior muscle; 50 mg, 30-15 Hz, SAD).
`CN(C(=O)n1cnc(-c2ccc[n+]([O-])c2)c1)C1CCCCC1` — result for “change in licking score”: -29% (mice, formalin paw test; oral, 0.3 mg/kg, late phase; relative to: vehicle, direction not given).
`CC(C)NCC(O)c1ccc(O)c(O)c1` (centres unmarked) gave a sarcomere length of 1.51 µm (ventricular cardiomyocytes, C57BL/6 mouse; dose not given, 0.22 s).
`COc1ccc(-c2cncc(N[C@@H](C)c3cccc(NC(=O)c4cncc(C)c4)c3)n2)cc1OC`: “delta delta Ct” -3.67 (measured: rno-miR-381-3p; rat SU5416/hypoxia model, lung; dose not given, unit not given; relative to: SU5416/hypoxia vehicle).
With `CCCCCCCCCCCCCCCC1NCCc2cc(O)c(O)cc21` (centres unmarked) the Fe2+ chelation was 28.7 ± 1.26% (ferrozine; cell-free; 100 µM, DMSO solvent).
`O=C(c1cc(Cc2n[nH]c(=O)c3ccccc23)ccc1F)N1CCN(C(=O)C2CC2)CC1`: PAR concentration “decreased” (measured: poly(ADP-ribose); human patient, PBMC; dose not given, 24 h; relative to: baseline).
For `O=C(O)CNC(=O)Cc1ccccc1`, the sarcomere length was 1.72 µm (ventricular cardiomyocytes, C57BL/6 mouse; dose not given, 0.38 s).

Excerpt of the above:
The Kd of `O=C(O)Cc1nc2ccccc2o1` is reported as 278 µM (Ubiquitin carboxyl-terminal hydrolase 13, ZnF-UBD domain (USP13, Homo sapiens, UniProt Q92995)).
`CCN1CCN(Cc2ccc(Nc3ncc(F)c(-c4cc(F)c5nc6n(c5c4)[C@H](C)CCC6)n3)nc2)CC1` — result for “not evaluable tumour response”: 0% (Phase Ia, RECIST v1.1; patients with advanced solid tumours; dose not given, monotherapy, all doses).
`CC(C)NCC(O)c1ccc(O)c(O)c1` (centres unmarked) gave a sarcomere length of 1.51 µm (ventricular cardiomyocytes, C57BL/6 mouse; dose not given, 0.22 s).
